Measured values gathered from unrelated publications.
A part holds a random share of what one study measured. Changes are numbered by the printed parent chain.

Study 1 — target: CCNF, cyclin fold, Cln2 fusion (human); method: yeast growth competition, sequencing; sample: yeast; notes: weak parent motif; reference: not given; reading: higher = stronger binding
Starting sequence: DNAH7 docking peptide (human); HELFQRLDFDNDG; partner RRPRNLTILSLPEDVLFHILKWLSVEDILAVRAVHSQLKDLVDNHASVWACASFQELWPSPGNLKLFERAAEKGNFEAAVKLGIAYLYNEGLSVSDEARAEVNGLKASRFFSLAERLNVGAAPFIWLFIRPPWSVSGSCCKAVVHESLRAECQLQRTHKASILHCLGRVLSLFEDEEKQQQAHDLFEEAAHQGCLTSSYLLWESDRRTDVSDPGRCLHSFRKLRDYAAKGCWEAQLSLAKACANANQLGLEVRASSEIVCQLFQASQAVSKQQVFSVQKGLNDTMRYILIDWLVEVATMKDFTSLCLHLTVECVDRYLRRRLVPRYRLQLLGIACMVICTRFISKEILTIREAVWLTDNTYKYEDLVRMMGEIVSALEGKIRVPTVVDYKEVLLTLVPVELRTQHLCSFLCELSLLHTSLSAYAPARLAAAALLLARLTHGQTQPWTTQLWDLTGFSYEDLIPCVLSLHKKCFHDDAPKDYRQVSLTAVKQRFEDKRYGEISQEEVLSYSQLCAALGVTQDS
| Change | normalised enrichment score |
| --- | --- |
| HALFQRLDFDNDG [E2A] | 0.392 |
| HELFARLDFDNDG [Q5A] | 0.212 |
| HELFQRLDFDNAG [D12A] | 0.768 |
| HELFQRLDADNDG [F9A] | -0.5 |
| HELFQALDFDNDG [R6A] | -0.282 |
| HELFQRLDFDNDA [G13A] | -0.0738 |

Study 2 — method: protein-binding microarray; molecule type: double-stranded DNA, one strand shown; sample: in vitro; concentration: 2540 nM top; notes: 60-bp whole probe; with: salmon DNA 0.4 mg/ml; reference: random background probes; reading: higher = stronger binding; constant ends, left off below: GCCTAGCAC … GTCTTGATTCGCTTGACGCTGCTG
Target: Interferon regulatory factor 3, full length, phosphomimetic (IRF3, Homo sapiens, UniProt Q14653, residues 1-427, S386D/S396D/S398D/S402D/T404D/S405D)
Residues (chain): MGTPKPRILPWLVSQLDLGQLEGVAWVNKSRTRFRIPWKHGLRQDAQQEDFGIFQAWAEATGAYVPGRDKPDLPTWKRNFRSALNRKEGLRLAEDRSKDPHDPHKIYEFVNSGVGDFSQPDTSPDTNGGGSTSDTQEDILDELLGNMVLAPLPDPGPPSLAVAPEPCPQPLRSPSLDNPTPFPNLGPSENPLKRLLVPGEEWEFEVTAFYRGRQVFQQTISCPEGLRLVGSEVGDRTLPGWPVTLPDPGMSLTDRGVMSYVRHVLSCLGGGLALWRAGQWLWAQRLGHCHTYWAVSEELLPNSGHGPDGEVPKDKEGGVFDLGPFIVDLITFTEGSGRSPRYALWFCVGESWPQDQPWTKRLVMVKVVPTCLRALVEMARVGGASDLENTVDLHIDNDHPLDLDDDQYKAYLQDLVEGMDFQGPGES
| Oligonucleotide | fitted relative affinity [z-score] |
| --- | --- |
| TTAGGTATCGTGTATCGGTTAGTGCTA | 1.18 |
| GACGTTTTCGGACTGGGGACGTGCTAG | 2.09 |
| TTAGATATCGGGACTGGGTTAGTGCTA | -0.086 |
| TCAATCTTAGATATTAAACTGTGCTAG | 0.671 |
| TTAGGTTTCGGTCTCGGCTAGTGCTAG | 8.65 |
| TTAGATTCCAGTGTCGATTAGTGCTAG | 1.41 |
| GACGGCTTCGGTTCCGGGACGTGCTAG | 1.18 |
| GTAGGACTGGACTTTCGGTTAGTGCTA | 0.927 |
| TCATGTTTTTTTCTACTACTGTGCTAG | 0.706 |
| GACGGTTTCGGGTTTCGGGGCGTGCTA | 5.74 |

Study 3 — method: DHFR PCA, deep sequencing; sample: yeast; with: (+)-ABA 0.11 µM; reference: wild-type fitted maximum; reading: higher = stronger binding
Target: ABI1, truncated, D143A, DHFR fusion (Arabidopsis thaliana)
Notes: methotrexate growth selection, single substitutions
Starting sequence: PYL1, truncated, DHFR fusion (Arabidopsis thaliana); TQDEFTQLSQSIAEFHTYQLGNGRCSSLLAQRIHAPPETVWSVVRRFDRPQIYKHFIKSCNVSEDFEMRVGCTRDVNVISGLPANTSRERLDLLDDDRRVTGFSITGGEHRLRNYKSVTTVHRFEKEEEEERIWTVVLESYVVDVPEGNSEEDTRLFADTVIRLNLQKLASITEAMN
| Change | relative binding score [%] |
| --- | --- |
| F124K | 3.15 |
| K54A | -3.66 |
| L8V | 2.69 |
| R113W | 2.05 |
| Q10R | 29.5 |
| S11R | 2.25 |
| F103L | -3 |
| T119K | -2.55 |

Mixed results
| Molecule | target | assay | test system | conditions | scale | endpoint | result |
| --- | --- | --- | --- | --- | --- | --- | --- |
| PhoQ, residues 284 288 289 292 302 303 SSTMSV | PhoP, residues 12 14 15 18 19 QYCSL (Escherichia coli, UniProt P23836) | Sort-seq, measured: YFP reporter | E. coli | PhoQ-PhoP variant library, with: 10 µM Mg2+ | reference: high Mg2+ state, higher = stronger signaling | fold induction | 1.69 |

A few entries again (study 3):
| Change | relative binding score [%] |
| --- | --- |
| F103L | -3 |
| K54A | -3.66 |
| R113W | 2.05 |
